# Experimental data from different studies.
# A part holds a random share of what one study measured. Changes are numbered by the printed parent chain.

# Set 1
# Target: RING finger protein unkempt homolog, zinc fingers 1-6, GST-SBP tag (UNK, Homo sapiens, UniProt Q9C0B0, residues 30-357)
# Chain of UniProt Q9C0B0 (30-357, looked up): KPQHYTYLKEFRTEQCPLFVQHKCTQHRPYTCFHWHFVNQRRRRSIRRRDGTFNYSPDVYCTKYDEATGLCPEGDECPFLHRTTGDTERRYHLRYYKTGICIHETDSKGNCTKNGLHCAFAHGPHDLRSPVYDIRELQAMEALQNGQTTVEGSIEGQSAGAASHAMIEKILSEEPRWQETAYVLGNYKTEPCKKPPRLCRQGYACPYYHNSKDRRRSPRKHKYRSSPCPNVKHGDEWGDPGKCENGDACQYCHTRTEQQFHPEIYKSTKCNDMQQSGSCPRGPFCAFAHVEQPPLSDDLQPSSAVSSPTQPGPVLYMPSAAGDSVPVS
# Technique: RNA Bind-n-Seq
# Molecule type: RNA
# Medium: in vitro
# Tested at: not given
# Notes: RNA with constant flanks, human and mouse sites, ends assumed
# Baseline: input RNA pool
# Reading: higher = stronger binding
# Shared flanks, not repeated: GGGAGUUCUACAGUCCGACGAUC … CAACAGAGGAUUGAGCAUCA
Strand,bound/input enrichment [ratio]
CUUAAUGUUUCAUAAGGAGUAAAUUCUGGCAACCAUGUUUCUUGACUUCAUCUACGGUAUAUAGAGCAUAAGGAAUGACAGCAAUUUAAUAUGUACAGGUAGAUAAAUAACCAGCAUCUU,0.255
CAUCAACAGUAUGUGCAACGUAUAGAGAAACAGUUUCUUUUGUAUGCCUACUGGAUAGGCUUAGGAAUUUUGUCUUCUGUUGGGCUUGGAACAGGGCUGCACACCUUUCUGCUUUAUCUG,0.717
CAGAUCCGAUGUCUCUGCCAGCUUGGGGCUGAAGUUACCGUGGUACCCUGGGACCACGAGUUAGACAGUCAGAAAUAUGACGGUCUCUUCCUAAGUAAUGGACCCGGUGACCCUGCCUCU,0.191
UUGGCAGGAAAUAUCCAAGAUCCAGAUGAGCCCAUUUUAGAAUUCAGCUUAGCUUGCAGUGAGCUGCACACUCCAUCGCUAGAUCGAAAACCAAAUAGUUUUGUGGCUGUGAGUGUCACC,1.35
CUCUCUUUUUUAAAUGGGCUGUUUUUACUGCAGGGGCUUUUCUUCCCUAGAAACCCAACUCUACGCAGAAAAAGUGAAAAGGAAAAAAAAAACACAAAAAAAACCAGAAAAAAAAGCUAU,0.551
GAUGCUAAGAUGCACCCCACUCCAGCAUCACAUCCAAAGAAACAAGGUGUGGGCGUGUUUCCCUCUCAGGACCCUGCUCAGUCCAGAAUGCCUCCUUGGAUUUACAAUGAGAGUUUGGUU,0.187

# Set 2
# Target: CCNF, cyclin fold, Cln2 fusion (human)
# Technique: yeast growth competition, sequencing
# Medium: yeast
# Notes: strong parent motif
# Baseline: not given
# Reading: higher = stronger binding
# Starting sequence: MICAL3 docking peptide (human); LQLRRQLSFSEDS
Substitution,normalised enrichment score
L3V,7.48
R5S,-0.0128
S8G,3.03
Q6I,2.43
L7F,-0.434
R5N,0.223
D12M,5.6

# Set 3
# Target: CRIPT, C-terminal peptide
# Technique: DHFR complementation, deep sequencing
# Medium: yeast
# Notes: single substitutions, model-inferred values
# Baseline: wild type
# Reading: higher = weaker binding
# Starting sequence: ERBIN, PDZ domain 1 (human); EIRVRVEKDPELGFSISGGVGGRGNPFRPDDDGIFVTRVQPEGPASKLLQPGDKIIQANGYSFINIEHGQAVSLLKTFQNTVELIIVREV; partner TKNYKQTSV
Substitution,binding free energy change [kJ/mol]
I34M,1.38
I34P,2.51
P26G,2.97
E42D,-0.0142
R28W,0.0833
A58L,4.45
A58K,3.47

# Single results of other studies
Substance,target,assay,test system,setting,how to read,measurement,result
"PhoQ, residues 284 288 289 292 302 303 SSTLSG","PhoP, residues 12 14 15 18 19 LHTVM (Escherichia coli, UniProt P23836)","Sort-seq, measured: YFP reporter",E. coli,"PhoQ-PhoP variant library, with: 10 µM Mg2+","baseline: high Mg2+ state, higher = stronger signaling",fold induction,16.8

# Repeated from above (set 1):
Strand,bound/input enrichment [ratio]
CUUAAUGUUUCAUAAGGAGUAAAUUCUGGCAACCAUGUUUCUUGACUUCAUCUACGGUAUAUAGAGCAUAAGGAAUGACAGCAAUUUAAUAUGUACAGGUAGAUAAAUAACCAGCAUCUU,0.255
CUCUCUUUUUUAAAUGGGCUGUUUUUACUGCAGGGGCUUUUCUUCCCUAGAAACCCAACUCUACGCAGAAAAAGUGAAAAGGAAAAAAAAAACACAAAAAAAACCAGAAAAAAAAGCUAU,0.551
